Measurements collected from several papers.

Structure (SMILES)	target or system	assay	test system	setting	measurement	result
O=C1CCCC(=O)C1C(=O)c1ccc(C(F)(F)F)cc1[N+](=O)[O-]	human coronavirus OC43	virus-induced cell killing	MRC-5	screen	maximum inhibition	18.2%
CN1CCN(C2(CNC3CCN(c4cccc(-c5cc6cc(F)ccc6[nH]5)c4)CC3)CCC2)CC1	CAKI-1	–	–	–	GI50	1.71 µM
COc1c(C)c2c(c(O)c1C/C=C(\C)CCC(=O)O)C(=O)OC2	CAKI-1	cell proliferation	kidney cancer	–	IC50	0.977 µM
COc1cc(CCC[P+](c2ccccc2)(c2ccccc2)c2ccccc2)c(OC)c2c1OCO2.[I-]	CAKI-1	SRB	–	–	TGI	-5.14 log M
CN1CCN(c2ccc(OC(F)(F)F)c(Nc3ncc4c(n3)-c3c(c(C(N)=O)nn3CCO)CC4)c2)CC1	human coronavirus OC43	virus-induced cell killing	MRC-5	maximum over 10 doses	maximum inhibition	0%
COc1c(CCC[P+](c2ccccc2)(c2ccccc2)c2ccccc2)cc2c(c1OC)OCO2.[I-]	CAKI-1	SRB	–	–	TGI	-5.13 log M
Cn1cncc1C1=CN(c2ncnc3[nH]cnc23)CCS1	CAKI-1	–	–	renal cancer	CC50	> 200 µM
CCN(CC)c1ccc(C=NNC(=O)CSc2nc3ccccc3c(=O)n2Cc2ccc(S(N)(=O)=O)cc2)c(O)c1	CAKI-1	NCI five-dose screen	–	–	CC50	> 100 µM
CC(C)N1CCC(NC2CCN(c3cccc(-c4cc5cc(F)ccc5[nH]4)c3)CC2)CC1	CAKI-1	–	–	–	CC50	5.74 µM
Cc1cc(N(CCOS(C)(=O)=O)CCOS(C)(=O)=O)ccc1C(=O)O	CAKI-1	cell growth	–	–	IC50	15.8 µg/mL

Some of these lines once more:
Structure (SMILES)	target or system	assay	test system	setting	measurement	result
COc1c(CCC[P+](c2ccccc2)(c2ccccc2)c2ccccc2)cc2c(c1OC)OCO2.[I-]	CAKI-1	SRB	–	–	TGI	-5.13 log M
